Measured values collected from several papers.
Each line is one published result; not all experiments were run side by side. Several values in a cell are separate wells, animals, samples, runs or records. ± marks the error that the study gave.
UniProt Q5VST6, sequence (whole entry, looked up): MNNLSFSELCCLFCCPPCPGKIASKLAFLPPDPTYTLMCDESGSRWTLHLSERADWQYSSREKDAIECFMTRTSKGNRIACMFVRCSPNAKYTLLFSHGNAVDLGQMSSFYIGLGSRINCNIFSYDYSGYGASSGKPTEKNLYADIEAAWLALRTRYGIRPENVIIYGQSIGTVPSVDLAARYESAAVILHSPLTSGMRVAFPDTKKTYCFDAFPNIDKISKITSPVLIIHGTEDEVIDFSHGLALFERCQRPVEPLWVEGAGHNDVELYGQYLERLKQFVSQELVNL

COc1ncccc1-c1cnn2ccc(N3CCN(C(=O)OC(C)C)CC3)nc12 — drug concentration (rat, rotarod test, brain; 10 mg/kg, 180 min): 3.6 µM
C[C@H]1C[C@@H](N2C(=N)N[C@](C)(c3cccc(NC(=O)c4cccc(C#N)c4)c3Cl)CC2=O)CCO1 — phosphorus change (rat; 1000 mg/kg, every other day): -14%
CC[C@H](C)[C@@H]1NC(=O)[C@@H]2CCCN2C(=O)[C@H](CC(C)C)NC(=O)[C@H](CC(C)C)NC(=O)CNC(=O)[C@@H](NC(=O)[C@@H](NC(=O)[C@H](CC(=O)O)NC(=O)CNC(=O)[C@@H](NC(=O)[C@H](C)NC(=O)CNC(=O)[C@H](CCCCN)NC(=O)[C@H](CC(C)C)NC(=O)[C@H](CC(C)C)NC(=O)[C@H](CCCCN)NC(=O)CNC(=O)[C@@H](NC(=O)[C@@H](N)CC(C)C)C(C)C)C(C)C)C(C)C)CSSC[C@@H](C(=O)O)NC1=O — log2 fold change (RNA-seq, measured: Plekhg6; mouse, traumatic brain injury model, frontal cortex and hippocampus; dose not given; baseline: TBI alone): -1.76
CC(=O)c1c(C)c2cnc(Nc3ccc(C4CCN(CCS(C)(=O)=O)CC4)cn3)nc2n(C2CCCC2)c1=O — Tmax (human, plasma; oral, 100 mg, day 1 single dose): 7.67 h
CN[C@@H](C)C(=O)N[C@H]1CN(S(=O)(=O)c2cccc(S(=O)(=O)N3CC[C@H]4CC[C@@H](C(=O)NC(c5ccccc5)c5ccccc5)N4C(=O)[C@@H](NC(=O)[C@H](C)NC)C3)c2)CC[C@H]2CC[C@@H](C(=O)NC(c3ccccc3)c3ccccc3)N2C1=O — treatment-related AST elevation incidence (patients with advanced solid tumours; 45 mg, phase I monotherapy): 20%
CC[C@H](C)[C@H](NC(=O)[C@H](Cc1ccccc1)NC(=O)[C@H](CCC(=O)O)NC(=O)[C@H](CCCNC(=N)N)NC(=O)[C@H](C)NC(=O)[C@H](C)NC(=O)[C@H](CCC(N)=O)NC(=O)[C@H](CCC(=O)O)NC(=O)[C@H](CCC(=O)O)NC(=O)[C@H](CC(C)C)NC(=O)[C@H](Cc1ccc(O)cc1)NC(=O)[C@H](CO)NC(=O)[C@H](CO)NC(=O)[C@@H](NC(=O)[C@H](CC(=O)O)NC(=O)[C@H](CO)NC(=O)[C@@H](NC(=O)[C@H](Cc1ccccc1)NC(=O)[C@@H](NC(=O)CNC(=O)[C@H](CCC(=O)O)NC(=O)[C@H](C)NC(=O)CCc1cnc[nH]1)[C@@H](C)O)[C@@H](C)O)C(C)C)C(=O)N[C@@H](C)C(=O)N[C@@H](Cc1c[nH]c2ccccc12)C(=O)N[C@@H](CC(C)C)C(=O)N[C@H](C(=O)N[C@@H](CCCNC(=N)N)C(=O)NCC(=O)N[C@@H](CCCNC(=N)N)C(=O)N[C@@H](CCCCNC(=O)COCCOCCNC(=O)COCCOCCNC(=O)CC[C@H](NC(=O)CCCCCCCCCCCCCCCCC(=O)O)C(=O)O)C(=O)NCC(=O)NCC(=O)N[C@@H](CO)C(=O)N[C@@H](CCSC)C(=O)N[C@H](C(=O)N[C@@H](CCCCNc1c(NCCCCCN(O)C(=O)CCC(=O)NCCCCCN(O)C(=O)CCC(=O)NCCCCCN(O)C(C)=O)c(=O)c1=O)C(=O)O)C(C)C)C(C)C [zirconium-89 labelled] — tissue uptake (ex vivo gamma counting; male Sprague-Dawley rats, muscle; intravenous, 1 nmol, 24 h, mean of 3 animals): 0.072 %ID/g
COc1cc2c(Oc3ccc4[nH]c(C)cc4c3F)ccnc2cc1OCC1(N)CC1 — grade 3 Tinnitus (paediatric recurrent refractory sarcoma; concentration not given, whole group): 0%
CCN1CCN(Cc2ccc(Nc3ncc(F)c(-c4cc(F)c5nc6n(c5c4)[C@H](C)CCC6)n3)nc2)CC1 — blood fibrinogen decreased incidence (Phase Ia dose escalation; patients with advanced solid tumours; dose not given, monotherapy, any grade): 33.3%
CC(C)C[C@H](NC(=O)[C@H](CCCCN)NC(=O)OCC1c2ccccc2-c2ccccc21)C(=O)N[C@H](C(=O)N[C@@H](Cc1ccccc1)C(=O)N[C@@H](Cc1ccccc1)C(=O)N[C@@H](CCCCN)C(=O)NCC(=O)N[C@@H](Cc1ccccc1)C(=O)N[C@@H](C)C(=O)N[C@@H](Cc1c[nH]c2ccccc12)C(=O)N[C@@H](CC(N)=O)C(=O)N[C@H](C(=O)N[C@H]1CSSC[C@@H](C(=O)N[C@@H](Cc2c[nH]cn2)C(=O)N[C@@H](CCCNC(=N)N)C(=O)N[C@@H](CCCNC(=N)N)C(=O)N[C@@H](C)C(=O)N[C@@H](CC(N)=O)C(N)=O)NC(=O)[C@H](C(C)C)NC(=O)[C@H](CCCNC(=N)N)NC(=O)[C@H](C(C)C)NC(=O)CNC(=O)[C@H](CC(N)=O)NC(=O)[C@H](CCCNC(=N)N)NC(=O)[C@H](Cc2ccc(O)cc2)NC(=O)[C@H](C(C)C)NC1=O)C(C)C)C(C)C — secondary structure content (circular dichroism, measured: Random-coil; PBS; 80 µM, pH 7.4): 31.4%
COc1ccc2nc3cc(Cl)ccc3c(Nc3cc(CN4CCCC4)c(O)c(CN4CCCC4)c3)c2n1 — ALT activity (mouse, blood; intraperitoneal, 14 mg/kg): 0.55 U/L
CCS(=O)(=O)Nc1ccc(Oc2ccc(F)cc2F)c(-c2cn(C)c(=O)c3[nH]ccc23)c1 — treatment-emergent adverse events (serious malignant neoplasm progression; human, relapsed/refractory AML; oral, dose not given): 5%
COc1cccc(Oc2ccccc2NC(=O)CNC(=O)c2cccc3ccccc23)c1 — lymphocytes (esterase-deficient SCID mice, male, blood; oral, 40 mg/kg/day, 14 days, toxicity study; baseline: white cells): 64% and 65% and 44.1%
Cn1ncc(-c2nc(N[C@H]3CC[C@H](N)CC3)ncc2Cl)c1CC1CC1 — AUC (HPLC-MS/MS; patients, plasma; oral, 8 mg, day 5): 0.937 µg·h/mL
COc1ccc(-c2c(-c3ccc(C#N)c(F)c3)nc(N3CCC(N)CC3)n(C)c2=O)cc1F — grade 3-4 TRAE incidence (measured: conjunctival hemorrhage; human patients; oral, dose not given, dose escalation): 0%
C[C@]1(O)C[C@@](N)(c2ccc(-c3nc4n(c3-c3ccccc3)COc3ccncc3-4)cc2)C1 — patients with decreased appetite (human, advanced or metastatic solid tumours; 20 mg once daily, phase I dose escalation): 33.3%
O=C(c1ccc(Cl)cc1)N1CCN2C(=O)N(OC(=O)N3CCOc4ccccc43)C(=O)C2C1 (stereo not drawn) — median ratio (ABHD17B (Homo sapiens, UniProt Q5VST6); enzyme activity, inhibitor, MS-based ABPP; SW-620 in situ; 10 µM, 2 h, 37 °C; baseline: compound over DMSO, lower = stronger inhibition): 1.07
CO[C@H]1C[C@@H]2CC[C@@H](C)[C@@](O)(O2)C(=O)C(=O)N2CCCC[C@H]2C(=O)O[C@H]([C@H](C)C[C@@H]2CC[C@@H](OC(=O)NCCOCCOCCOCCOCCOCCOCCOCCOCCC(=O)N3CCc4cc(Cn5nc(-c6ccc7oc(N)nc7c6)c6c(N)ncnc65)ccc4C3)[C@H](OC)C2)C[C@@H](O)[C@H](C)/C=C(\C)[C@@H](O)[C@@H](OC)C(=O)[C@H](C)C[C@H](C)/C=C/C=C/C=C/1C — dose-reducing adverse events (phase 1 dose escalation, measured: fatigue; advanced solid tumour patients; intravenous, 12 mg weekly, grade ≥3): 0%
CCN1[C@@H](C(=O)NC23CCC(C(=O)O)(CC2)CC3)[C@H](c2cccc(Cl)c2F)[C@]2(C(=O)Nc3cc(Cl)ccc32)C12CCCCC2 — grade ≥3 vomiting incidence (patients with advanced solid tumours; oral, 200 mg): 0%
C[C@@H]1NC(=O)[C@H](CCCCNC(=O)CO/N=C/C(=O)NCCCC[C@@H]2NC(=O)[C@@H](Cc3ccccc3)NC(=O)[C@H](CC(=O)O)NC(=O)CNC(=O)[C@H](CCCNC(=N)N)NC2=O)NC(=O)CNC(=O)[C@@H]2CCCN2C(=O)[C@H](CCCCNC(=O)CO/N=C/C(=O)NCCCC[C@@H]2NC(=O)[C@@H](Cc3ccccc3)NC(=O)[C@H](CC(=O)O)NC(=O)CNC(=O)[C@H](CCCNC(=N)N)NC2=O)NC(=O)[C@H](CCCCNC(=O)[C@H](CCCCN)NC(=O)[C@H](Cc2ccccc2)NC(=O)CNC(=O)CN2CCCNCCNCCCNCC2)NC(=O)[C@H](CCCCNC(=O)CO/N=C/C(=O)NCCCC[C@@H]2NC(=O)[C@@H](Cc3ccccc3)NC(=O)[C@H](CC(=O)O)NC(=O)CNC(=O)[C@H](CCCNC(=N)N)NC2=O)NC(=O)CNC(=O)[C@@H]2CCCN2C(=O)[C@H](CCCCNC(=O)CO/N=C/C(=O)NCCCC[C@@H]2NC(=O)[C@@H](Cc3ccccc3)NC(=O)[C@H](CC(=O)O)NC(=O)CNC(=O)[C@H](CCCNC(=N)N)NC2=O)NC1=O [copper-64 labelled] — tissue uptake (normal mice, stomach; intravenous, 0.74 MBq, 24 h post-injection): 0.7 ± 0.19 %ID/g
COc1ccnc(C(=O)N[C@H]2COC(=O)[C@H](Cc3ccccc3)[C@@H](OC(=O)C(C)C)[C@H](C)OC2=O)c1OCOC(=O)C(C)C — micronucleus test (mouse, in vivo): negative
O=C1c2c(O)c(=O)ccn2N([C@@H]2c3ccccc3SCc3c2ccc(F)c3F)[C@@H]2COCCN12 — Cmax (BALB/c mouse; subcutaneous, 8 mg/kg q24h): 0.299 µg/mL
CC[C@H](C)[C@H](NC(=O)[C@H](Cc1ccccc1)NC(=O)[C@H](CCC(=O)O)NC(=O)[C@H](CCCNC(=N)N)NC(=O)[C@H](C)NC(=O)[C@H](C)NC(=O)[C@H](CCC(N)=O)NC(=O)[C@H](CCC(=O)O)NC(=O)[C@H](CCC(=O)O)NC(=O)[C@H](CC(C)C)NC(=O)[C@H](Cc1ccc(O)cc1)NC(=O)[C@H](CO)NC(=O)[C@H](CO)NC(=O)[C@@H](NC(=O)[C@H](CC(=O)O)NC(=O)[C@H](CO)NC(=O)[C@@H](NC(=O)[C@H](Cc1ccccc1)NC(=O)[C@@H](NC(=O)CNC(=O)[C@H](CCC(=O)O)NC(=O)[C@H](C)NC(=O)CCc1c[nH]cn1)[C@@H](C)O)[C@@H](C)O)C(C)C)C(=O)N[C@@H](C)C(=O)N[C@@H](Cc1c[nH]c2ccccc12)C(=O)N[C@@H](CC(C)C)C(=O)N[C@H](C(=O)N[C@@H](CCCNC(=N)N)C(=O)NCC(=O)N[C@@H](CCCNC(=N)N)C(=O)N[C@@H](CCCCNC(=O)COCCOCCNC(=O)COCCOCCNC(=O)CC[C@H](NC(=O)CCCCCCCCCCCCCCCCC(=O)O)C(=O)O)C(=O)NCC(=O)NCC(=O)N[C@@H](CO)C(=O)N[C@@H](CCCCNc1c(NCCCCCN(O)C(=O)CCC(=O)NCCCCCN(O)C(=O)CCC(=O)NCCCCCN(O)C(C)=O)c(=O)c1=O)C(=O)O)C(C)C [zirconium-89 labelled] — tissue uptake (ex vivo gamma counting; rat, skin at injection site; subcutaneous, 3 nmol/kg, 72 h): 1.32 %ID/g
CC[C@H](C)CCCCC(=O)N[C@@H](CCN)C(=O)N[C@H](C(=O)N[C@@H](CCN)C(=O)N[C@H]1CCNC(=O)[C@H]([C@@H](C)O)NC(=O)[C@H](CCN)NC(=O)[C@H](CCN)NC(=O)[C@H](CC(C)C)NC(=O)[C@@H](CC(C)C)NC(=O)[C@H](CCN)NC1=O)[C@@H](C)O — drug retained in HBSS (LC-MS/MS; Transwell device; 500 ng/mL, 4 h, 37 °C): < 20%
CCc1ccc(CC/C=C/c2ccc3c(c2)C(=O)CC3)cc1 — Lymphocyte percentage (Sprague-Dawley rat, female; oral, 450 mg/kg/day, 14 days): 71.7%
O=C1Nc2cc3[nH]nc(-c4ccncc4)c3cc2CN1Cc1ccccc1 — patients with dyspnoea (CTCAE v4.03; advanced solid tumour patients; intravenous, 0.9 mg/kg, schedules 1/2): 0%
O=S(=O)(Nc1ccccc1)c1ccc(NC(=S)Nc2ccccc2)cc1 — serum enzyme activity (measured: ALT; female mouse, blood; oral, 20 mg/kg daily, 14 days): 67 U/L
C[C@H]1COCCN1c1nc(NCc2cccnc2C(F)(F)F)c2cccnc2n1 — PCE share (male CD-1 mouse, femur bone marrow; oral, 1000 mg/kg twice, 48 h, group mean): 47.3%
C=CCNc1c(O)cc2c(O)c1C[C@@H](C)C[C@H](OC)[C@H](O)[C@@H](C)/C=C(\C)[C@H](OC(N)=O)[C@@H](OC)/C=C\C=C(/C)C(=O)N2 — patients with myalgia TEAE (unresectable or metastatic STS, GIST, other; intravenous, 500 mg/m^2): 14%
CC(C)CC(=O)OC[C@H]1O[C@@](C#N)(c2ccc3c(N)ncnn23)[C@H](O)[C@@H]1O — recovery (plasma protein binding; human plasma; 9 µM, time not given): 100%
C[C@]1(CO)Cc2ncn(-c3ccc(C#N)c(Cl)c3)c2C(=O)O1 — subjects with any TEAE (human; 40 mg multiple doses, fasted): 22.2%
C[C@@H](NC(=O)N1C(=O)[C@H](Cc2ccnc(N)c2)[C@H]1C(=O)O)C1CCCCC1 — incidence of albuminuria (healthy adult Chinese volunteers; continuous intravenous infusion, 0.6 mg/kg/h, 5-day infusion, CTCAE 5.0 grading): 0%
CN1CCN(S(=O)(=O)c2cc([N+](=O)[O-])ccc2N(CCOS(C)(=O)=O)CCOS(C)(=O)=O)CC1 — concentration (NSG mice, plasma; intraperitoneal, 5 mg/kg, 2 h): not detected
CN1CC[C@@H](c2c(O)cc(O)c3c(=O)cc(-c4ccc(C(F)(F)F)cc4Cl)oc23)[C@@H]1CO — patients with adverse event (measured: Epistaxis; relapsed or refractory haematological malignancies; oral, dose not given, all arms): 10%
